Published values collected from several papers.
Each numbered part is a random draw from the data of one study; scales do not carry over between parts. Substitutions count along the parent as printed.
Sequence of UniProt O15146 (whole entry, looked up): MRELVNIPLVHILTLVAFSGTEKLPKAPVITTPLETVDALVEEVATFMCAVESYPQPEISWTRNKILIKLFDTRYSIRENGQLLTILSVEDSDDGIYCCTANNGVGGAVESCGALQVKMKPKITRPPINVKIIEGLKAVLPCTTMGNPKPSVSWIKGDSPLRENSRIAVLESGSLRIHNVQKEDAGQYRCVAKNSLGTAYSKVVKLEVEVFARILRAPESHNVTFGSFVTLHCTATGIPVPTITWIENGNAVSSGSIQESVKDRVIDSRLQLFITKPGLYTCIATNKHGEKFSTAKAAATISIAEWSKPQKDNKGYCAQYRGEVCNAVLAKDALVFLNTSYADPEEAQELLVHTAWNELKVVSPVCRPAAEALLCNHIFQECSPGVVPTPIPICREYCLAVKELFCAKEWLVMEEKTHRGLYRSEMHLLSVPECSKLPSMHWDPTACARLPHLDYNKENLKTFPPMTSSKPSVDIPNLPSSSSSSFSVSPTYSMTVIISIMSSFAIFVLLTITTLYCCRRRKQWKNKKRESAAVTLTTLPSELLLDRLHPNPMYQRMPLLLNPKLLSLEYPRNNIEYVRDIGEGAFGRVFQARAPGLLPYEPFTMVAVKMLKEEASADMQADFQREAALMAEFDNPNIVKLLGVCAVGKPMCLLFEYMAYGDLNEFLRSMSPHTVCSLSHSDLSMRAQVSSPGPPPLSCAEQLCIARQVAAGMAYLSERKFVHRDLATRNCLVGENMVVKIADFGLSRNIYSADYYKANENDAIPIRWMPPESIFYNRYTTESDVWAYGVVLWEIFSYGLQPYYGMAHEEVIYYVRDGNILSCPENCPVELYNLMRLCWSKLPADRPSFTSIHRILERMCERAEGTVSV
Sequence of UniProt P54764 (whole entry, looked up): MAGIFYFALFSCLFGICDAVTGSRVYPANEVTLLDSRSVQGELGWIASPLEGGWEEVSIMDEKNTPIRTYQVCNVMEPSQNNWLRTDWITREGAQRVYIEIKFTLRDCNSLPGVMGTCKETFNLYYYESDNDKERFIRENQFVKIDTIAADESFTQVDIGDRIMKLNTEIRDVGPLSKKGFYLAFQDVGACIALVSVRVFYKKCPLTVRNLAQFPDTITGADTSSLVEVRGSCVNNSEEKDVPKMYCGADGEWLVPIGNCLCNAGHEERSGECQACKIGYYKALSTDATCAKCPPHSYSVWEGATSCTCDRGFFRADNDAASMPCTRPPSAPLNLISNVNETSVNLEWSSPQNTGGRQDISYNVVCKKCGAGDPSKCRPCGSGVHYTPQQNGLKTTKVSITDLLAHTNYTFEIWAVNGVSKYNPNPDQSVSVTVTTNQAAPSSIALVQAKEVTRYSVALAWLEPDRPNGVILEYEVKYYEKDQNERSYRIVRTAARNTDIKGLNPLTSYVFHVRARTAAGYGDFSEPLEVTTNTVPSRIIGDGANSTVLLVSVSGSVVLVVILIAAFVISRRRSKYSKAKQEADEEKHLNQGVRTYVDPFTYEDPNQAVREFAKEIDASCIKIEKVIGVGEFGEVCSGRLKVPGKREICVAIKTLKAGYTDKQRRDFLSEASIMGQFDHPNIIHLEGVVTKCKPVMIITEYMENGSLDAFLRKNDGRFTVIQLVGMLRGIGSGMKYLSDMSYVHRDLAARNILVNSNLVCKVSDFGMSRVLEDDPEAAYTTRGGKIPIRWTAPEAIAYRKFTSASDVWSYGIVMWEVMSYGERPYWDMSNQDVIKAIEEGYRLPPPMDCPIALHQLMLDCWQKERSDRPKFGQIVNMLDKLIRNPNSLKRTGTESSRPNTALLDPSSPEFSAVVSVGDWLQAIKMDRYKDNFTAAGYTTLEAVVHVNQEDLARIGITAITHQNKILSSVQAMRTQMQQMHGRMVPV
Sequence of UniProt Q8NI60 (whole entry, looked up): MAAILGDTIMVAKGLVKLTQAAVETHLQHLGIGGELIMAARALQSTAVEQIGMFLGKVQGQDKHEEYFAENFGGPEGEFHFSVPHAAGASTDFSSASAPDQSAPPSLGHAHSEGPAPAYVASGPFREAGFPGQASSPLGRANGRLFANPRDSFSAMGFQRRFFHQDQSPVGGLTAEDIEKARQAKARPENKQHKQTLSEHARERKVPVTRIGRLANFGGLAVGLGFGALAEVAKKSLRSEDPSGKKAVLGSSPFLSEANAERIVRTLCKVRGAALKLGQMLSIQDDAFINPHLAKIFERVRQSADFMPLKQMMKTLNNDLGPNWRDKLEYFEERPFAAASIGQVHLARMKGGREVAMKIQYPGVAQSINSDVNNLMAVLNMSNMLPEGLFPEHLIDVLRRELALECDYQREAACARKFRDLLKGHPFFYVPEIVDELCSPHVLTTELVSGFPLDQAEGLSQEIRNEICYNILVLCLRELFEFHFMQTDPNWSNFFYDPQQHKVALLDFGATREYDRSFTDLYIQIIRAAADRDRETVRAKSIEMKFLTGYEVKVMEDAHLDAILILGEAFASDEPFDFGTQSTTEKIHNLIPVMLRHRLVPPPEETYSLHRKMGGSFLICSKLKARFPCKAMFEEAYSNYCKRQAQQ
Sequence of UniProt Q32MK0 (whole entry, looked up): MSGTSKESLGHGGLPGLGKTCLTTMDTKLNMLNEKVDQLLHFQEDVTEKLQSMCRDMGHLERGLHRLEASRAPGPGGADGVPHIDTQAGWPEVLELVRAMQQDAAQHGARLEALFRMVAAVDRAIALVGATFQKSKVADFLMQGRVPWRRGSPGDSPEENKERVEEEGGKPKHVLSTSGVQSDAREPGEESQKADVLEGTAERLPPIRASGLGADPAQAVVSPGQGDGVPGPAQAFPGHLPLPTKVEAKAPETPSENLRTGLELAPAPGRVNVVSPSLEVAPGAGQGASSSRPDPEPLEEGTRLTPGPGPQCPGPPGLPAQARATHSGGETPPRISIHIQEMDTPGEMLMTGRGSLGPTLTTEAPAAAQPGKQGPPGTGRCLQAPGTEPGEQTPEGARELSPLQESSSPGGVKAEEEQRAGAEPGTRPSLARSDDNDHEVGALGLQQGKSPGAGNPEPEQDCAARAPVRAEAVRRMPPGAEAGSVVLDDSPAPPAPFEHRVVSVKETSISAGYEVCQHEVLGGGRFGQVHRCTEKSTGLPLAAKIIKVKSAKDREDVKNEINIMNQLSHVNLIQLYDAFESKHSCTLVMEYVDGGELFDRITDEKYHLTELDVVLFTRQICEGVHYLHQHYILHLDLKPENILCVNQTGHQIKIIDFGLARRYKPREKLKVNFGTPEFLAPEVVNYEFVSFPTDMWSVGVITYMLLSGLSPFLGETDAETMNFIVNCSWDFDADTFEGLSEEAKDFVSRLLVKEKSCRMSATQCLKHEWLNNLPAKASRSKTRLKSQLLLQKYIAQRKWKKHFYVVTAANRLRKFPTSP
Sequence of UniProt P49674 (whole entry, looked up): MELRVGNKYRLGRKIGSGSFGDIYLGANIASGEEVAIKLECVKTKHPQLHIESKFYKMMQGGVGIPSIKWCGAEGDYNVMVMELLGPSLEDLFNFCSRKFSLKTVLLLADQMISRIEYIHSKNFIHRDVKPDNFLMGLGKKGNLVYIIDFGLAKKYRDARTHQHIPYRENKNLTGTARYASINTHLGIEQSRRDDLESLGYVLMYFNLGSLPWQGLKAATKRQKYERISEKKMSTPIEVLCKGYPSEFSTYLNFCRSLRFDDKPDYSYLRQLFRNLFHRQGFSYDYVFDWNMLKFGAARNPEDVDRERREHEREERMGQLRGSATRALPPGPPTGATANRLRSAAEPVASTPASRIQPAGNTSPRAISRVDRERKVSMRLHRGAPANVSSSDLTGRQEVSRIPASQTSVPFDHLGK
Sequence of UniProt Q8IVW4 (whole entry, looked up): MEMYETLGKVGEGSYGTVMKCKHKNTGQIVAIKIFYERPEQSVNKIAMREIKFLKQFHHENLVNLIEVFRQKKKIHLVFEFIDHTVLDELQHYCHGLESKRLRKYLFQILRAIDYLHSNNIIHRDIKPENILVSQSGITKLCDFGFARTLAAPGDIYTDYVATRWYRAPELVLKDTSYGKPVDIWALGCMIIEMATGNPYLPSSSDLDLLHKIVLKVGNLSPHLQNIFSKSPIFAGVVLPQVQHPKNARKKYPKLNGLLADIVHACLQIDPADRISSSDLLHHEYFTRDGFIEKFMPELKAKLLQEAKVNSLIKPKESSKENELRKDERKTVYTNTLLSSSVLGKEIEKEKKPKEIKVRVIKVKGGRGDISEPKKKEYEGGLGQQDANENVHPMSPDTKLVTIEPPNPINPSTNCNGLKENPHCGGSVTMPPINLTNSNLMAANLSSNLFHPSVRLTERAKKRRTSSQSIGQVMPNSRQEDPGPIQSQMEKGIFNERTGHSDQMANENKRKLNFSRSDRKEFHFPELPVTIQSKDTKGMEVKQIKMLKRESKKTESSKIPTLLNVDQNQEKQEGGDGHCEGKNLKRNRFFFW
Sequence of UniProt Q05513 (whole entry, looked up): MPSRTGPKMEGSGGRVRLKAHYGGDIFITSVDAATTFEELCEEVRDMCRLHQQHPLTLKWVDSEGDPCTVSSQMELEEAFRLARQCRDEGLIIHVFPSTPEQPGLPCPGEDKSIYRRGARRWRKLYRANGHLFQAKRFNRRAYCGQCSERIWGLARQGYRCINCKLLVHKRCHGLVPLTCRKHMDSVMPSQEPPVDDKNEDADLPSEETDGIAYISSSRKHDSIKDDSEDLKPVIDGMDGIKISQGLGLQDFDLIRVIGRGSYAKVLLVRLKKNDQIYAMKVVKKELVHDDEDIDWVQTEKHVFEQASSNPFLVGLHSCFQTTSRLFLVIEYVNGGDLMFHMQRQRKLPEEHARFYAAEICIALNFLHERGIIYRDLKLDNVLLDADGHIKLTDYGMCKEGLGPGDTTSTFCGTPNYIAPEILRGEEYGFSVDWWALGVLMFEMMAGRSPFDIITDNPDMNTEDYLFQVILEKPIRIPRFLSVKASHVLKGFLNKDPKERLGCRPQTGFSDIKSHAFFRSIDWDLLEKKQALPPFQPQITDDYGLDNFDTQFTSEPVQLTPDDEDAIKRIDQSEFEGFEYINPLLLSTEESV

Sample 1 — method: RNAcompete; molecule type: RNA; sample: in vitro; concentration: 20 nM; notes: 7-mer, probes averaged, single round; relative to: mean of 7-mers; reading: higher = stronger binding; endpoint: 7-mer Z-score
Target: PABPC1L2, full length, GST fusion (mouse, UniProt A0ABA7IW68)
Construct (chain): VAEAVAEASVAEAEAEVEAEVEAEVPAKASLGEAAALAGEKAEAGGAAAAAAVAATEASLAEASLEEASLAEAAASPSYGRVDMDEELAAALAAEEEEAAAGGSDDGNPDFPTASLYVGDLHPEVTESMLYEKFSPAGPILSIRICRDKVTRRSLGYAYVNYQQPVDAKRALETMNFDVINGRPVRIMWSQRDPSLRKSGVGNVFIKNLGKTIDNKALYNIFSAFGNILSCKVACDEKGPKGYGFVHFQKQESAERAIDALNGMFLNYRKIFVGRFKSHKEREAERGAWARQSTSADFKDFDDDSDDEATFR
Sequence = ACCUUGA; result = -0.217
Sequence = ACGUUAU; result = -0.255
Sequence = CAGUGGG; result = 0.177
Sequence = GAUAGGG; result = 0.193
Sequence = AAUGGUU; result = -0.0138
Sequence = CGCAGAC; result = -0.00833
Sequence = GUGCCCA; result = -0.121
Sequence = UUUGAAG; result = -0.28

Sample 2 — method: competition with immobilised ligand; concentration: 1 µM; endpoint: remaining binding
SMILES: CN([C@@H]1CCc2c(CC(=O)O)c3cc(S(C)(=O)=O)ccc3n2C1)S(=O)(=O)c1ccc(F)cc1
target = Tyrosine-protein kinase ABL1, non-phosphorylated (ABL1, Homo sapiens, UniProt P00519, F317I); effect on = binding; result = 75%
target = DYRK2 (Homo sapiens, UniProt Q92630); effect on = cell-free assay; result = 94%
target = CDKL3 (Homo sapiens, UniProt Q8IVW4); effect on = cell-free assay; result = 100%
target = COQ8A (Homo sapiens, UniProt Q8NI60); effect on = cell-free assay; result = 87%
target = EIF2AK1 (Homo sapiens, UniProt Q9BQI3); effect on = cell-free assay; result = 90%
target = FLT3 (Homo sapiens, UniProt P36888, F691L/ITD); effect on = cell-free assay; result = 98%
target = PIK3CA (Homo sapiens, UniProt P42336, M1043I); effect on = cell-free assay; result = 98%
target = STK17A (Homo sapiens, UniProt Q9UEE5); effect on = cell-free assay; result = 100%
target = CAMK1G (Homo sapiens, UniProt Q96NX5); effect on = cell-free assay; result = 100%
target = CSNK1G3 (Homo sapiens, UniProt Q9Y6M4); effect on = cell-free assay; result = 100%
target = NTRK3 (Homo sapiens, UniProt Q16288); effect on = cell-free assay; result = 100%
target = MAP3K12 (Homo sapiens, UniProt Q12852); effect on = cell-free assay; result = 100%
target = eIF-2-alpha kinase GCN2, C-terminal kinase domain (EIF2AK4, Homo sapiens, UniProt Q9P2K8, S808G); effect on = cell-free assay; result = 71%
target = PRKAA1 (Homo sapiens, UniProt Q13131); effect on = cell-free assay; result = 85%
target = MYLK3 (Homo sapiens, UniProt Q32MK0); effect on = cell-free assay; result = 100%
target = ULK2 (Homo sapiens, UniProt Q8IYT8); effect on = cell-free assay; result = 100%
target = STK32B (Homo sapiens, UniProt Q9NY57); effect on = cell-free assay; result = 100%
target = FGR (Homo sapiens, UniProt P09769); effect on = cell-free assay; result = 84%
target = Ribosomal protein S6 kinase alpha-6, N-terminal kinase domain (RPS6KA6, Homo sapiens, UniProt Q9UK32); effect on = cell-free assay; result = 71%
target = EPHA4 (Homo sapiens, UniProt P54764); effect on = cell-free assay; result = 93%
target = Mast/stem cell growth factor receptor Kit, autoinhibited (KIT, Homo sapiens, UniProt P10721); effect on = cell-free assay; result = 89%
target = MAK (Homo sapiens, UniProt P20794); effect on = cell-free assay; result = 65%

Sample 3 — effect on: enzyme activity; action: inhibitor; concentration: 0.5 µM; relative to: control; endpoint: remaining activity
SMILES: O=C1Nc2ccc(Br)cc2/C1=C/c1cc2c([nH]1)CCCC2
target = IGF1R (Homo sapiens, UniProt P08069); result = 74.3%
target = PRKCZ (Homo sapiens, UniProt Q05513); result = 104%
target = CSNK1D (Homo sapiens, UniProt P48730); result = 72.4%
target = CSNK1E (Homo sapiens, UniProt P49674); result = 84.3%
target = TEC (Homo sapiens, UniProt P42680); result = 129%
target = MUSK (Homo sapiens, UniProt O15146); result = 88.6%

Sample 4 — method: DHFR PCA, deep sequencing; sample: yeast; added: (+)-ABA 0.0091 µM; relative to: wild-type fitted maximum; reading: higher = stronger binding; endpoint: relative binding score
Target: ABI1, truncated, D143A, DHFR fusion (Arabidopsis thaliana)
Notes: methotrexate growth selection, single substitutions
Parent: PYL1, truncated, DHFR fusion (Arabidopsis thaliana); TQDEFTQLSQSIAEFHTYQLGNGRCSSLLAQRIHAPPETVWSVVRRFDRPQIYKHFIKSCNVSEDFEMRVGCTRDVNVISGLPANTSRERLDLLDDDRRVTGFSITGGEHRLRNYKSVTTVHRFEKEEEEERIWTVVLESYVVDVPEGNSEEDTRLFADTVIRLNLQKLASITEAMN
Change = N165E; result = 3.56%
Change = K126P; result = 55.4%
Change = E125K; result = 20.6%
Change = F47N; result = -3.24%
Change = V78A; result = 10.3%
Change = E174T; result = -1.05%
Change = I12Y; result = -3.34%
Change = F56M; result = -1.68%

Some of these lines once more (sample 4):
Change = F47N; result = -3.24%
Change = I12Y; result = -3.34%
Change = N165E; result = 3.56%
Change = E174T; result = -1.05%
